# Measurements collected from several papers.
# Every numbered part comes from another study and shows a few of its results, in no order. Values joined by “and” are separate records of one study, mostly repeats; a detail may differ. Positions count from the first letter of the parent shown.

# Block 1
# Target: Interferon regulatory factor 5, full length, phosphomimetic (IRF5, Homo sapiens, UniProt Q13568-2, residues 1-514, S451D/S453D/S456D/S462D)
# Technique: protein-binding microarray
# Form: double-stranded DNA, one strand shown
# Medium: in vitro
# Concentration: 940 nM top
# Notes: 60-bp whole probe
# Together with: salmon DNA 0.4 mg/ml
# Relative to: random background probes
# Reading: higher = stronger binding
# Constant ends, left off below: GCCTAGCAC … GTCTTGATTCGCTTGACGCTGCTG
Strand,fitted relative affinity
GTAGGTCTCGGTATCGGTTAGTGCTAG,7.04 z-score
GACGGACTGGGGACTGGGCACGTGCTA,-0.801 z-score
GACTCTTTCTGTCAGTTTTGGTGCTAG,1.9 z-score
TTAGGTTTCGACTCTCGGTTAGTGCTA,9.4 z-score
TTAGGTATACTTTTCCTTTAGTGCTAG,-0.153 z-score
TTAGGTATAGGTTTCGGTTAGTGCTAG,7.69 z-score
GACTGTATCCTTTTCCTGACGTGCTAG,0.822 z-score
TGAGGTATCGGACTGGGTTAGTGCTAG,1.99 z-score
TCATGTGTATATATAATACTGTGCTAG,0.253 z-score
GTCGGACTGCTTTTCCTGACGTGCTAG,0.318 z-score
GACGATCTAAGTCTCGAGACGTGCTAG,0.479 z-score

# Block 2
# Target: Fragile X messenger ribonucleoprotein 1, C-terminal low-complexity region (Fmr1, Mus musculus, UniProt P35922)
# Technique: RNA Bind-n-Seq
# Form: RNA
# Medium: in vitro
# Concentration: 200 nM
# Notes: whole 134-nt RNA, ends assumed
# Together with: 150 mM LiCl
# Relative to: input library
# Reading: higher = stronger binding
# All molecules: 7-deaza-guanosine replaces G
# Constant ends, left off below: GGGAGUUCUACAGUCCGACGAUC … UGGAAUUCUCGGGUGUCAAGG
Strand,log2 enrichment
UGUGCUACACAUCGUAUGUACCGAAUCGGGGCCCCCCCGGGGCCCCCCCGGCCCCCCCGGGGAAAGUAUUAUGUUACGCCGUUCGGAUCU,-1.54
UCAAGUCCUGUGCUACACAUCGUAUGUACCGAAUCGGUUUUUGGUUUUUGGUGGAAAGUAUUAUGUUACGCCGUUCGGAUCUGCACUUCC,-1.31
UGAGUAGAUCUAGAAAUGACAGUAUGACUUUGUUUCUAACAGCUCCAAAAUGGAUCAAAAUGUUUGUUUUGGAUGAAGCAGAUGAAAUGU,-4.36
CCUCAAGUCCUGUGCUACACAUCGUAUGUACCGAAUCGGGCGGGCGGGGCGGGAAAGUAUUAUGUUACGCCGUUCGGAUCUGCACUUCCA,-0.528
ACCAUGCAGGUGGGCAUCUUUGGGAAGUGGGGCAAGGGGGGGAUAGGGAGGGGGGUAACACUUUGGGAACAGGUGGUCCCAGGUCGAAAC,1.41
UGGGAGGUGGAUUUUGUUUAUUUAUUUAGCUCAUUUCCAGGGGUGGGAAUUUUUUUUUAAUAUGUGUCAUGAAUAAAGUUGUUUUUGAAA,-0.523
UCCUGUGCUACACAUCGUAUGUACCGAAUCGGUUUUUUUGGUUUUUUUGGAAAAAAAGGAAAGUAUUAUGUUACGCCGUUCGGAUCUGCA,-2.04
AGUCCUGUGCUACACAUCGUAUGUACCGAAUCGGUUUUUGGGUUUUUGGGUUUUUGGGAAAGUAUUAUGUUACGCCGUUCGGAUCUGCAC,-1.18

# Block 3
# Target: CCNB2, cyclin fold, Cln2 fusion (human)
# Technique: yeast growth competition, sequencing
# Medium: yeast
# Notes: weak parent motif
# Relative to: not given
# Reading: higher = stronger binding
# Starting sequence: GMNC docking peptide (human); KNAKRNLSSEFAN; partner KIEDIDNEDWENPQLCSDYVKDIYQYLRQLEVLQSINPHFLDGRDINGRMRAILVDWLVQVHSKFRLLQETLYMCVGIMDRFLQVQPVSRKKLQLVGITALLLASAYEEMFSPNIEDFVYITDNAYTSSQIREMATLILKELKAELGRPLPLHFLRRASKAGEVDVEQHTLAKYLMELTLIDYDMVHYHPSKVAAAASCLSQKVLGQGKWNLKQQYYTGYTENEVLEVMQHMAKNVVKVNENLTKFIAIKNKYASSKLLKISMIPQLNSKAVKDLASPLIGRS
Variant,normalised enrichment score
KNTKRNLSSEFAN [A3T],0.894
KAAKRNLSSEFAN [N2A],0.893
KNAKRNLSSEVAN [F11V],0.651
KNAKRNLSSECAN [F11C],0.38
KNAKRDLSSEFAN [N6D],-0.134
KCAKRNLSSEFAN [N2C],0.611

# Other studies, line by line
Molecule,target,assay,test system,conditions,scale,quantity,value
"PhoQ, residues 284 288 289 292 302 303 GNNTDL","PhoP, residues 12 14 15 18 19 LWHSL (Escherichia coli, UniProt P23836)","Sort-seq, refers to: YFP reporter",E. coli,"PhoQ-PhoP variant library, together with: 10 µM Mg2+","relative to: high Mg2+ state, higher = stronger signaling",fold induction,1.24 and 1.18
